Measured values from different studies.
Parts stem from different laboratories: compare values within a part only.

Set 1 — method: RNA Bind-n-Seq; form: RNA; sample: in vitro; tested at: 365 nM; reference: no-protein control; direction: higher = stronger binding
Target: RNA binding protein fox-1 homolog 2, RRM domain, GST-SBP tag (RBFOX2, Homo sapiens, UniProt O43251-10, residues 100-194)
Notes: natural RNA segment, single round, ends assumed
Shared flanks, not repeated: GGGAGUUCUACAGUCCGACGAUC … UGGAAUUCUCGGGUGCCAA
Construct (chain): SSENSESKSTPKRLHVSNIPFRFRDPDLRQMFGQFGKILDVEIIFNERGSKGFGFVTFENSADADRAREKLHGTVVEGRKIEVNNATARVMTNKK
Sequence | RBNS enrichment (R)
UAACUGUCCCAGCGACAUUUCUCCAAGUGGAAAUCCUAUUUUUGUAGAUCUCCAUGCUUUGCUCUCAAGGCUUGGAGAGGUAUGUGCCCCUCCUGGGUGCUCACCGCCUG | 0.298
CCUCUGCCCUUCACACUCUCCUCCAAAAGAGCCUCCAUCUGUAAGGAAGCAGGUCUCCGCGAGGGGUUUCUUUCCAUGUGUUUUCCUCCUGUUGUUUUAGAACUUUUUUA | 0.755
CACUGUGCACUGCUUGUGAGAAAAUGGAUUAAAAACUAUUCUUACAUUUGUUUUGCCUUUCCUCCUAUUUUUUUUUAACCUGUUAAACUCUAAAGCCAUAGCUUUUGUUU | 0.603
CUGAAUAUAUGCAAUAUCCGUCCGUCUGUCUGGGUCAAGCUCAGCUGUGGGGAGUCCCAGUGGUGGAGGGGACACAGCGGGCCCGUUCCCAAGUCCGUGAUUUCAGUUUU | 0.207
CAGGGCUAAAACUCUAAUUUGGAAUUGAAUAUUGUGGAUAUCUUAGUUAAAGGCCAUGCUUACAGCUUAGAAAUGAAGCCUUAAGCUGCAUCAAGUUACGAAGUGAUUAA | 0.911
GCUGGUCAAGCCCCCUUUGAUUGAGUUCAUCAUGAGCCGUUGCUAAUGCCAGGCCAGUAAAAGUAUAACAGCAAAUAACCAUUGGUUAAUCUGGACUUAUUUUUGGACUU | 0.355
UGCGCUCUGUGGAUGCCAGGGCCGACCAGAGGAGCCUUUUUAAAACACAUGUUUUUAUACAAAAUAAGAACGAGGAUUUUAAUUUUUUUUAGUAUUUAUUUAUGUACUUU | 0.532
GAGUAGAAGCUUCCUGUGCCUCCGGUUGCCAGGAGACAGCCUGUGCAGUUAAAUGGACCUAGAUUUUGUUUUGCACUAAAGUUUCUGUGACUUAAUAAAGUUCUGUUAAC | 1.83
CCUAAAAGCAGAUGUUUUGCCAAAUCUCCAAACUAGAGGACAAAGACAAGGGGACAAUGACCAUCAAUUCAUCUAAUCAGGAAUUGUGAUGGCUUCCUAAGGAAUCUCUG | 0.434
CCAGAAUUUUCUUGAUUGUUACUUUCAGUGAUAUUCUUUAUAUUGGGUACAGGAGAAGUUUGGUGUUUGGUAGGUUUUUCAACAUUAGUUUUUGAGACUAGUUUACCUCU | 0.428
CCUAUCUAGCCUUCAGAUGUCCUCCACUGCAGGUCACCCCAGGAGAUAGCAUCAAUAAUAUAGUCUCAGUCUUGUUUAUAAAGAUUCUAAGUUGUCUAGUAAAUAAGUCU | 0.792
CAGAGUGCAAGUGUGGGUGUCGGUGUGAGUUCACCUAACAAAUCAUGACCUUUAUCAUCAACUCUGAUUCGAUCCAUGCGUUUUUUUUAUACUAAGCAAUAACUUUACGA | 15.9

Set 2 — method: competition protein-binding microarray; form: double-stranded DNA, one strand shown; sample: in vitro; tested at: 2 µM; with: Cbf1 competitor, 0.05 µM; direction: higher = stronger binding; shared flanks, not repeated: … GTCTTGATTCGCTTGACGCTGCTG
Target: Phosphate system positive regulatory protein PHO4, full length, GST-tagged (PHO4, Saccharomyces cerevisiae, UniProt P07270, residues 1-312)
Notes: whole 60-bp probe, lowest competitor level
Residues (chain): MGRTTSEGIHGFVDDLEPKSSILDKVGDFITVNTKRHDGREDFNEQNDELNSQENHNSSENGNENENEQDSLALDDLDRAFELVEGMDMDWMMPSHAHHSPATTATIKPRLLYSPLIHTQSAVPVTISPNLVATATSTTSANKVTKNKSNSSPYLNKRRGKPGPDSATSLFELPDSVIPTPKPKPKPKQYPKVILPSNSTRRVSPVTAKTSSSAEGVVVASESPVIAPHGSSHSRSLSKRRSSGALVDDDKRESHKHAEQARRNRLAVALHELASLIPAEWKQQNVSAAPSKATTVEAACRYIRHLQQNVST
Sequence | fluorescence intensity [a.u.]
TGCGCAACAACTTGCAGCGTGGGTGTATGTCTAGAA | 8070
AATCAGCTTATTCAGCTCGTGGAAGGTTGTCCAGTC | 7910
CCATATTGGATTACCCACGTCGCCGCGACAGGCCTT | 5590
CCGGACTTCCATCGGCACGTGGACCTAAAATTCTTT | 18700
AAATTACTAAGTTGTCACAAGACTTACCCCGTATGA | 3490
CGGGGTTAAGTTTGAATTGTGGGTGGCTTGCAGCAG | 4670
CTATTTTTCCTCTGGCGCGTGAATAGCCCGCAGAGA | 6530
AAAGCGGTAATTTGGACAGTGGGTGCAGATATCTAT | 4030
AACCGGTCCCTTCTGTGCGTGGTCGGACCTGCTACA | 6280
TTGAGAGTTTCCCATCACGTGGTCGCCTTGCATCGC | 13600
CGTCCTAGTGATTGCTGCGTGGGTGCCATGAGGAAG | 10200
GAAAGGAAATGCTGTCATGTGAGTTAGGTGTAGAGC | 6280
AAATTACTAAGTTGATGGGTGGGTGACGCCGTATGA | 4140
AGAAATGCCATTTTGCACGTGACGAAACAAATTGTG | 15500
TGCGCAACAACTTTTCACGTGAGATTATGTCTAGAA | 10500
GTTTCGCCAGTTTCACTCATGACAAGTCTGCCAGTT | 3300
AAATTTTTACTAGGACACGTGTAACACAGCTCCATG | 17000
TTGTTGAAAACGAGTCACGTGCTTTACCATTTTGCT | 15500
TCATAGAAGGAAAAGCACATGGTACCCAGGCAGAGT | 11400
AAATTACTAAGTTGGTGTGTGGGTGACGCCGTATGA | 5850
GTCTTGTCTCATTGCACTGTGGGTGTCCCCACTTCA | 5120
TGGCATTCGTCTACCCACGTCTTGGGTGAATCTTGT | 6150
AAATTACTAAGTTTTCACGTGGTTTACCCCGTATGA | 14100
AAAGCGGTAATTTGACTAGTGGGTGCAGATATCTAT | 4760
TCAGCTTAGCACAGACACGTTGTGGTCTGTAGGTCA | 11900

Set 3 — method: RNA Bind-n-Seq; form: RNA; sample: in vitro; tested at: not given; reference: input RNA pool; direction: higher = stronger binding
Target: RING finger protein unkempt homolog, zinc fingers 1-6, GST-SBP tag (UNK, Homo sapiens, UniProt Q9C0B0, residues 30-357)
Notes: RNA with constant flanks, human and mouse sites, ends assumed
Shared flanks, not repeated: GGGAGUUCUACAGUCCGACGAUC … CAACAGAGGAUUGAGCAUCA
Construct (chain): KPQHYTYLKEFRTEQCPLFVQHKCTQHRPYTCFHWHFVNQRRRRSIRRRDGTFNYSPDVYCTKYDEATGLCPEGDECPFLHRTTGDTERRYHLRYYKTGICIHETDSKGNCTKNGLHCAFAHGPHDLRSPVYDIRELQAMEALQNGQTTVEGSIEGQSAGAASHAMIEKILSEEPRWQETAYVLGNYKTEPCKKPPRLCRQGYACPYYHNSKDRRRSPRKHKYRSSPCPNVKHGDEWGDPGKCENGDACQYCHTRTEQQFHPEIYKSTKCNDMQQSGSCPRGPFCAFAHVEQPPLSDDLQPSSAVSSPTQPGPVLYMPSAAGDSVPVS
Sequence | bound/input enrichment [ratio]
AAAUGUGCUGCCUCUGUUGGAAUUGGUUCUAAUAUUCUCCUGGCUAGAAUGGCAACUAGAAAAGCAAAACCAGAUGGGCAGUACCACCUAAAACCAGAAGAAGUAGAUGAUUUUAUCAGA | 0.327
GCACAAAUCUUUCCCACUAGCCAUUUAAUAAGUUAAAAAAAGAUACAAAAACAAAAACCUACUAGUCUUGAACAAACUGUCAUACGUAUGGGACCUACACUUAAUCUAUAUGCUUUACAC | 48.3
AGGUUGGGGCAUGAGUGGGCAUUUUCCUAAUGACUUGCUGCUAGGAGGUUAUAGGCAGGGAACAGUCUGGGAGUCUCUAAUCCAGAGAGACUUUCAGAUUCCCUCUCUUCACAUGAACCU | 0.111
CCCCAAAUCCCUCCCUGUUCUACACUGGGGACAGCAGAAUUUUCUCCCCGUCUUCCCCUUCCUGCCAUUUUCCCUCCCUUGAAAGGUUGACACUGGACAACCUUGGGGCAGCUGAGCCCU | 1.02
GAAGUGGAGCCCAAAUUAGCCGCCUGGAUCCAAAAACUUAAUAGCUUUGGCUUAGAUGCCACAGGAACUUUCUUUUCUCGUUAUGGAGCAUCUCUUAAACUGCUUGAUUUUAGUAUCAUG | 3.72
CUCUAGAGGAGGCCUCUAGGUCGCCAUGGCAACUGGGCAGAAGUUGAUGAGGGCUAUUCGAGUGUUUGAGUUUGGUGGACCAGAAGUGCUGAAGCUCCAGUCGGAUGUGGUCGUGCCUGU | 0.257
GAUAAGAGCAUGCAGGACCGAUUGCGAUUAGGCCACUUUACUACUGUCCGGCAUGGAGCCUCGUUUACUGAGCAGUGGACAGAUGGUUAUGCUUUCCAAAACCUCAUCAAGCAACAGGAA | 0.458
GGCUCUAACUACUUUGUGCGGCUCUACACGGAGCCGCUGCUGGUGAACCUGCCGACACCGGACUUCAGCAUGCCCUACAACGUGAUCUGCCUCACGUGCACUGUGGUGGCCGUGUGCUAU | 0.0451
UUUGGUGUUAUCCGGUCACUUAUGGCGUUUAGGCUAACAGGUGGCACCAAAGACUACAUUGUAGUUGGCAGUGACUCAGGCCGGAUUGUUAUCUUGGAAUACCAGCCAUCAAAGAAUAUG | 0.766
GGGAUGACCUGCCAUUCAUGUACUAGCACUAUUGAAGGAAAAAUUGGGAAACUGCAAGGUGUUCAGCGAAUUAAAGUCUCCCUGGACAAUCAAGAAGCUACUAUUGUUUAUCAACCUCAU | 0.137
GAGGAAGUUCACGAUCUUGAAAGGAAGUAUGCUGUUCUCUAUCAGCCUCUAUUUGAUAAGCGAUUUGAAAUUAUUAAUGCAAUUUAUGAACCUACGGAAGAAGAAUGUGAAUGGAAACCA | 0.485

Set 4 — method: protein binding microarray; form: double-stranded DNA, one strand shown; sample: in vitro; tested at: not given; reference: not given; direction: higher = stronger binding
Target: Histone acetyltransferase KAT6A, winged helix 1, GST fusion (KAT6A, Homo sapiens, UniProt Q92794, residues 1-85)
Notes: 8-mer, flanks averaged, mean of 2 arrays, mostly near background
Construct (chain): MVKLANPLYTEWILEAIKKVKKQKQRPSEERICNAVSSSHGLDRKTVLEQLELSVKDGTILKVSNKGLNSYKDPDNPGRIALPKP
Sequence | E-score
CTGGAGGA | -0.0833
GACTCATA | -0.156
CGAGCGCA | 0.257
CTATTACA | 0.00454
AATATGAT | -0.116
CCAACTAG | -0.128
AATCATCA | -0.179
ATATTAGA | -0.195
CTACTATA | -0.116
ACCGAGGC | -0.0301
ACAAGGGA | -0.298
CTGTAATC | -0.069
CATAATAC | -0.1
CTTACCAC | -0.0298
CACGAAGC | 0.0244
AGACCCGA | 0.0875
AATGTACT | -0.00604
CCCACACC | -0.0683
ACGCTTCA | 0.0424
GAACTGTA | -0.0186
GGATAGGA | -0.0605
AAGGCACC | -0.0163
GCAGGGAA | -0.119

Some of these lines once more (set 2):
Sequence | fluorescence intensity [a.u.]
AAATTACTAAGTTGATGGGTGGGTGACGCCGTATGA | 4140
TCATAGAAGGAAAAGCACATGGTACCCAGGCAGAGT | 11400
CGTCCTAGTGATTGCTGCGTGGGTGCCATGAGGAAG | 10200
GTTTCGCCAGTTTCACTCATGACAAGTCTGCCAGTT | 3300
AAATTACTAAGTTGGTGTGTGGGTGACGCCGTATGA | 5850
AAAGCGGTAATTTGGACAGTGGGTGCAGATATCTAT | 4030
TTGTTGAAAACGAGTCACGTGCTTTACCATTTTGCT | 15500
TTGAGAGTTTCCCATCACGTGGTCGCCTTGCATCGC | 13600
AAAGCGGTAATTTGACTAGTGGGTGCAGATATCTAT | 4760
TGCGCAACAACTTGCAGCGTGGGTGTATGTCTAGAA | 8070
